{"data": "Published values pooled from the literature", "note": "Each line is one published result; not all experiments were run side by side. ± gives the spread as reported.", "UniProt P06401, sequence (whole entry, looked up)": "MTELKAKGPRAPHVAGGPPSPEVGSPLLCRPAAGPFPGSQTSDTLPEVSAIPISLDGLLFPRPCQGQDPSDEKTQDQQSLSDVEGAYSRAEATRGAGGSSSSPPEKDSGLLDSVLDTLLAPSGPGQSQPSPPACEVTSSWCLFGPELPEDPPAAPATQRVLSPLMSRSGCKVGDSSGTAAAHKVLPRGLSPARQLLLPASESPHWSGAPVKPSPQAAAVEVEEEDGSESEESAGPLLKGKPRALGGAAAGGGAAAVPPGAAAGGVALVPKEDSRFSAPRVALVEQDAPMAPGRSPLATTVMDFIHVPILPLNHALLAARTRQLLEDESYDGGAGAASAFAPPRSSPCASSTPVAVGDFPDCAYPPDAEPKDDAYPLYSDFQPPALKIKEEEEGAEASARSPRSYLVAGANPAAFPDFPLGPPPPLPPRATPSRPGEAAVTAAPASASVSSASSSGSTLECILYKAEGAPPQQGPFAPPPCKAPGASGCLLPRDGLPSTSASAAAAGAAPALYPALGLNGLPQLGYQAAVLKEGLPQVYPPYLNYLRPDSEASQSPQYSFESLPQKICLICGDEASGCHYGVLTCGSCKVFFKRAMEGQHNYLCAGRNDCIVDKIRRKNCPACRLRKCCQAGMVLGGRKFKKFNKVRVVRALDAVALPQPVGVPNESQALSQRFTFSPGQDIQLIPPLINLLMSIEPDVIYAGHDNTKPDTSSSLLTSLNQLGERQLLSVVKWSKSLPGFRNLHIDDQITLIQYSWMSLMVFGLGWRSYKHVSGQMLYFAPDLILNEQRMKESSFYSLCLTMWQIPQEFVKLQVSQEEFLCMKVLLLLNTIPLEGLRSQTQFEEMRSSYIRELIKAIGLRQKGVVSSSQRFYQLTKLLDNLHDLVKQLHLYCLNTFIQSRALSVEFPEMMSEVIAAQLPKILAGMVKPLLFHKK", "UniProt P08172, sequence (whole entry, looked up)": "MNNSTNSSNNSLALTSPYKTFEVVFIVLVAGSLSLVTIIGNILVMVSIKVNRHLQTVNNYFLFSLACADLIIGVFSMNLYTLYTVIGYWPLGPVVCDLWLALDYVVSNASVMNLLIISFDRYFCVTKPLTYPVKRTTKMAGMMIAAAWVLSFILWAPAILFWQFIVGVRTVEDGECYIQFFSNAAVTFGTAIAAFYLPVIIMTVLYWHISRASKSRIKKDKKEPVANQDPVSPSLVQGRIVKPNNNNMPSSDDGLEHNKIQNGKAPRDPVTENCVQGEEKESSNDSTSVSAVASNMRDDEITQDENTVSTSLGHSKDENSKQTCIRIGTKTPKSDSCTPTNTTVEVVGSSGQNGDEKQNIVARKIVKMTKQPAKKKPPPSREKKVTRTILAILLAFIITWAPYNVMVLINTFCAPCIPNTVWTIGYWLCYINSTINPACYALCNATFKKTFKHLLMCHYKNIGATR", "UniProt O95180, sequence (whole entry, looked up)": "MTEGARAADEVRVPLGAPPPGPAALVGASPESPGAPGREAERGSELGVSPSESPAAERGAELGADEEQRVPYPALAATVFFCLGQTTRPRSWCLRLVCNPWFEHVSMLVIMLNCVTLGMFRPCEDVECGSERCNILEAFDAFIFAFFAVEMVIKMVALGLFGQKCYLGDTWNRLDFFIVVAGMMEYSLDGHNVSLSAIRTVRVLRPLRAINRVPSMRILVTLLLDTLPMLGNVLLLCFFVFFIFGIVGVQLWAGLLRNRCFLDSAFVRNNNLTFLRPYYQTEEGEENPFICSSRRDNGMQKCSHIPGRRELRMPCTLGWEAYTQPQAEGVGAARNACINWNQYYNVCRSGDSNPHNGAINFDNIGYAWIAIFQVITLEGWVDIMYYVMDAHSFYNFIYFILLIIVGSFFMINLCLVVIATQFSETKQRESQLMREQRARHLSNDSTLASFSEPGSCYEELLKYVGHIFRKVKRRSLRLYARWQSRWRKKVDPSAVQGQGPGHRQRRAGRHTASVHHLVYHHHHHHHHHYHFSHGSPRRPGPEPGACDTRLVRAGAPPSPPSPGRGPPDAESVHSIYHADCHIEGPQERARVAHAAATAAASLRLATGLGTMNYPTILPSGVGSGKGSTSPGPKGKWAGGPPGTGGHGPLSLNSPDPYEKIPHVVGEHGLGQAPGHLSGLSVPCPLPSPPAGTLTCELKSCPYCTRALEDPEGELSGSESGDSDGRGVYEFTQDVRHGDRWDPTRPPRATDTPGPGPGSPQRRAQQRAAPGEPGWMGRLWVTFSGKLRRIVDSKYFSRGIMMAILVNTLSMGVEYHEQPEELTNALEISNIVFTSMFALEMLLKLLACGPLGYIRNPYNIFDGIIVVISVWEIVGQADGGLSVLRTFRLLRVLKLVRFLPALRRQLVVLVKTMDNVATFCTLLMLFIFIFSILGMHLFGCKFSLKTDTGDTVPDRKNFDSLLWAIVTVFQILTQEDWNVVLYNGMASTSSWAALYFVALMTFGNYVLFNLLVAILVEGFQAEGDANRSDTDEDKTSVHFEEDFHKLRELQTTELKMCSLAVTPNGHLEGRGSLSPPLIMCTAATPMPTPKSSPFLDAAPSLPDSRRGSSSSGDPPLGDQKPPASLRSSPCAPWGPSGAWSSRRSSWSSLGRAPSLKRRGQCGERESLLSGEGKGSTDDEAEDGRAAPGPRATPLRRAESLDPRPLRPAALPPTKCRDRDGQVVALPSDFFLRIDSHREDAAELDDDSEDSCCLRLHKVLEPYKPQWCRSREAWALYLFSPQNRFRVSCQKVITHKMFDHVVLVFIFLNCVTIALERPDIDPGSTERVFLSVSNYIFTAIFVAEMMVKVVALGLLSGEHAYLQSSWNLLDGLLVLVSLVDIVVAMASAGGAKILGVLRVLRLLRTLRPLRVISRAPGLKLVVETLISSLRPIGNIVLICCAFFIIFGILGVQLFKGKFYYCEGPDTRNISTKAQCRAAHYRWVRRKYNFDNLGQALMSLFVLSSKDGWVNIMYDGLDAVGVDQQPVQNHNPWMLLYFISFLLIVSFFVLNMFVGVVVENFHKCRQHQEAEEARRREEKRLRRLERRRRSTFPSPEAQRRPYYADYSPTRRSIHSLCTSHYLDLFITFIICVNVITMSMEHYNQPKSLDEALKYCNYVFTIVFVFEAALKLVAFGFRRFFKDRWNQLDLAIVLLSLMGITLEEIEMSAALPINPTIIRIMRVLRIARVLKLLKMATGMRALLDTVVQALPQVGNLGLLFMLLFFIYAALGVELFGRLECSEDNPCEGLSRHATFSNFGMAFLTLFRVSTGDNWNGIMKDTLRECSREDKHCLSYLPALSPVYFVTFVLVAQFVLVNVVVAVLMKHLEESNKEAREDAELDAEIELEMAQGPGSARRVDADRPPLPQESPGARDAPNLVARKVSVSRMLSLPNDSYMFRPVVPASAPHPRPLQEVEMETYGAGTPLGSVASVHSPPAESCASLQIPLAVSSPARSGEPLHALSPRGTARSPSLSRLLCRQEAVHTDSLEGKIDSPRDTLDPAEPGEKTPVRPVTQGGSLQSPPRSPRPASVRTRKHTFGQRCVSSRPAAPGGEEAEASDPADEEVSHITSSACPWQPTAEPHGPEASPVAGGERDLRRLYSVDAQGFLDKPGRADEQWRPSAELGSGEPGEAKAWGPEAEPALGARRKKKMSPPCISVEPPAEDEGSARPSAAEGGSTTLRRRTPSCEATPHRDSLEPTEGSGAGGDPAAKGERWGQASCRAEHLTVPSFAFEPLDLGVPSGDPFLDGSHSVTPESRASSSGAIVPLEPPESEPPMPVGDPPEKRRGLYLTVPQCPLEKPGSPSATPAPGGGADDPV", "UniProt P20594, sequence (whole entry, looked up)": "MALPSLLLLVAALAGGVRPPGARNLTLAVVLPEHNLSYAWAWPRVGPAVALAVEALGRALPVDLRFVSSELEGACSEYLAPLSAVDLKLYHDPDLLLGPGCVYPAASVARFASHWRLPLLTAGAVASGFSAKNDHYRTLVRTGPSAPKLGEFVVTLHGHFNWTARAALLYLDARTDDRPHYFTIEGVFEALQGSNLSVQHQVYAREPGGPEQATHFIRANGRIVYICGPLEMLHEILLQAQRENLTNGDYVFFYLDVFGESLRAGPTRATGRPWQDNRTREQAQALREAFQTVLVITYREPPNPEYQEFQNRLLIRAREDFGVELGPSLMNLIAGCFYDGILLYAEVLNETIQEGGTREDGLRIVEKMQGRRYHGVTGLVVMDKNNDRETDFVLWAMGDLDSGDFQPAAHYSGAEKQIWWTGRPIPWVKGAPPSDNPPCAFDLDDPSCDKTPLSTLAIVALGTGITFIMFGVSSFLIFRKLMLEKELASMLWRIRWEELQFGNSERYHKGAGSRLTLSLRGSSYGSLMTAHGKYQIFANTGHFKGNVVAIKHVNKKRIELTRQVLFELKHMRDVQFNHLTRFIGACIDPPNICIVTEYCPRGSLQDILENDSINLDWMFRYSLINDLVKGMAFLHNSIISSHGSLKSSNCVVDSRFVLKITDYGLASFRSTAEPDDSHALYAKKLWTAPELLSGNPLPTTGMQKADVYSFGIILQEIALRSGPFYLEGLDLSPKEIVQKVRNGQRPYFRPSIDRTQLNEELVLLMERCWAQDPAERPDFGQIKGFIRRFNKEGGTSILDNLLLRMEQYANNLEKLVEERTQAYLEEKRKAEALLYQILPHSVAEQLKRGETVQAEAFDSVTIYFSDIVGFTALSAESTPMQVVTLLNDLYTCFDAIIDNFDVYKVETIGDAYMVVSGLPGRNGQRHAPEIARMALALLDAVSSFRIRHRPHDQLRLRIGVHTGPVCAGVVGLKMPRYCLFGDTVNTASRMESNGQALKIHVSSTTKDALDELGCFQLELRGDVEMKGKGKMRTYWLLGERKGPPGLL"}
{"Structure (SMILES)": "CCCCCCCCCCSc1nc2c([nH]1)c(=S)n(C)c(=S)n2C", "target": "PGR (Homo sapiens, UniProt P06401)", "test": "reporter gene, antagonist, MMTV-luciferase", "system": "T47D/A1-2", "conditions": "10 µM, 24 h, added: 5 nM progesterone", "how to read": "baseline: maximal activity", "measurement": "remaining activity", "value": "66%"}
{"Structure (SMILES)": "CC(C)(C)CCN1C[C@@H]2[C@@H](CNC(=O)c3cc(Cl)cc(Cl)c3)[C@@H]2C1.Cl", "target": "CACNA1H (Homo sapiens, UniProt O95180)", "test": "whole-cell patch clamp", "system": "HEK-293T, transfected", "conditions": "100 nM", "measurement": "Gmax", "value": "0.0966 ± 0.0239 nS/pF"}
{"Structure (SMILES)": "CC(=O)N[C@@H](Cc1c[nH]c2ccccc12)C(=O)N[C@@H](Cc1c[nH]c2ccccc12)C(=O)N[C@@H](Cc1c[nH]c2ccccc12)C(=O)N[C@@H](Cc1c[nH]c2ccccc12)C(=O)N[C@@H](Cc1c[nH]c2ccccc12)C(=O)N[C@@H](Cc1c[nH]c2ccccc12)C(=O)N[C@@H](Cc1c[nH]c2ccccc12)C(=O)NCCCC[C@@H]1NC(=O)[C@H](CCCNC(=N)N)NC(=O)[C@H](CCCNC(=N)N)NC(=O)[C@H](CCCNC(=N)N)NC(=O)[C@H](CCCNC(=N)N)NC(=O)[C@H](CCCNC(=N)N)NC1=O", "target": "PRKCA (Homo sapiens, UniProt P17252)", "test": "enzyme activity, inhibitor", "conditions": "5 µM", "measurement": "remaining activity", "value": "15.8%"}
{"Structure (SMILES)": "CCc1cc(O)cc2c(/C=N/NC(=N)NCCc3ccc(Cl)cc3)c[nH]c12", "target": "RXFP4 (Homo sapiens, UniProt Q8TDU9, L118A)", "test": "cAMP response, agonist", "conditions": "concentration not given, L118A mutant", "how to read": "baseline: wild type", "measurement": "potency change by mutation", "value": "increased"}
{"Structure (SMILES)": "CC[C@H](C)[C@H](NC(=O)[C@H](CCC(N)=O)NC(=O)[C@@H](NC(=O)[C@H](CO)NC(=O)CNC(=O)CNC(=O)CNC(=O)[C@@H]1CCCN1C(=O)[C@@H](NC(=O)[C@H](Cc1c[nH]cn1)NC(=O)[C@H](CCCCN)NC(=O)[C@H](CCCCN)NC(=O)CNC(=O)CNC(=O)CNC(=O)[C@@H](N)CSC1CC(=O)N(c2ccc3c(c2)C(=O)OC32c3ccc(N(C)C)cc3Oc3cc(N(C)C)ccc32)C1=O)C(C)C)C(C)C)C(=O)N[C@H](C(=O)N[C@@H](Cc1ccc(O)cc1)C(=O)N[C@@H](CCCCN)C(=O)N1CCC[C@H]1C(=O)N[C@H](C(=O)N[C@@H](CC(=O)O)C(=O)N[C@@H](CC(C)C)C(=O)O)C(C)C)C(C)C (some centres unmarked)", "target": "microtubules (porcine)", "test": "competition with TMR-peptide, fluorescence ratio", "conditions": "concentration not given, compound added after, added: taxol", "measurement": "taxol binding", "value": "no effect"}
{"Structure (SMILES)": "CCc1nc2cc3ccccc3cc2cc1C(=O)N[C@@H](CCCCN)C(=O)N[C@@H](C/C=C/C[C@H](NC(=O)[C@H](CCCCN)NC(=O)c1cc2cc3ccccc3cc2nc1CC)C(=O)N1CCC[C@H]1C(=O)NCCCN)C(=O)N1CCC[C@H]1C(=O)NCCCN", "target": "CUG–CAG duplex RNA", "test": "SPR", "measurement": "residence time", "value": "374 s"}
{"Structure (SMILES)": "CCCCOc1ccc(C(=O)OCC[N+]2(C)CC=CCC2)cc1 (centres unmarked)", "target": "CHRM2 (Homo sapiens, UniProt P08172)", "test": "recovery of [3H]NMS binding after washing", "system": "membranes", "conditions": "100 µM", "measurement": "dissociation half-time", "value": "0.2 ± 0.1 h"}
{"Structure (SMILES)": "N#CCN1CCN(C(=S)c2ccc(-c3cc(Cl)ccc3Cl)o2)CC1", "target": "NPR2 (Homo sapiens, UniProt P20594)", "test": "HTRF, measured: cGMP", "system": "HEK293 overexpressing GC-B", "conditions": "added: subthreshold CNP", "how to read": "baseline: saturating CNP", "measurement": "Emax", "value": "56%"}
{"note": "Excerpt of the above:"}
{"Structure (SMILES)": "CC[C@H](C)[C@H](NC(=O)[C@H](CCC(N)=O)NC(=O)[C@@H](NC(=O)[C@H](CO)NC(=O)CNC(=O)CNC(=O)CNC(=O)[C@@H]1CCCN1C(=O)[C@@H](NC(=O)[C@H](Cc1c[nH]cn1)NC(=O)[C@H](CCCCN)NC(=O)[C@H](CCCCN)NC(=O)CNC(=O)CNC(=O)CNC(=O)[C@@H](N)CSC1CC(=O)N(c2ccc3c(c2)C(=O)OC32c3ccc(N(C)C)cc3Oc3cc(N(C)C)ccc32)C1=O)C(C)C)C(C)C)C(=O)N[C@H](C(=O)N[C@@H](Cc1ccc(O)cc1)C(=O)N[C@@H](CCCCN)C(=O)N1CCC[C@H]1C(=O)N[C@H](C(=O)N[C@@H](CC(=O)O)C(=O)N[C@@H](CC(C)C)C(=O)O)C(C)C)C(C)C (some centres unmarked)", "target": "microtubules (porcine)", "test": "competition with TMR-peptide, fluorescence ratio", "conditions": "concentration not given, compound added after, added: taxol", "measurement": "taxol binding", "value": "no effect"}
